{"data": "Assay results of several laboratories", "cell line": "HepG2", "note": "Lines come from different studies, so protocols differ. ± marks the error that the study gave."}
{"Compound": "O=C(/C=C/c1ccc(O)cc1)OCCCC[P+](c1ccccc1)(c1ccccc1)c1ccccc1", "assay": "SRB", "setting": "48 h", "scale": "reference: IC50 L02 over IC50 HepG2", "measurement": "therapeutic index", "result": 5.26}
{"Compound": "CCC[C@H]1CC[C@H](c2ccc(NC(=S)NC[C@@H]3[C@@H](O)[C@@H](O)[C@H]4[C@H](O)CCCN43)cc2)CC1", "assay": "fluorescent lectin imaging", "setting": "10 µM, 48 h", "measurement": "ConA binding to cell surface", "result": "increased"}
{"Compound": "[NH2][Pt]1([NH2])([Cl])([O]C(=O)C(Cl)Cl)[O]C(=O)C2(CC(=O)C2)C(=O)[O]1", "assay": "annexin V-FITC/PI flow cytometry", "setting": "50 µM, 24 h", "measurement": "early apoptotic cells", "result": "21.6%"}
{"Compound": "O=C(/C=C/c1ccc(O)c(O)c1)OCCCC[P+](c1ccccc1)(c1ccccc1)c1ccccc1", "assay": "SRB", "setting": "24 h", "scale": "reference: IC50 L02 over IC50 HepG2", "measurement": "therapeutic index", "result": 12.9}
{"Compound": "CC(=O)O[C@@H]1CC[C@@]2(C)C(CC[C@]3(C)C2C(=O)C=C2C4[C@@H](C)[C@H](C)CC[C@]4(C)CC[C@]23C)[C@@]1(C)C(=O)N/N=C1/C(=O)Nc2ccccc21 (stereo partly shown)", "assay": "IL-1β production, ELISA, measured: IL-1β", "setting": "1 µM, with: acetaminophen 10 mM", "scale": "reference: acetaminophen-treated cells", "measurement": "inhibition", "result": "~39%"}
{"Compound": "[Cl][Pd-2]1([Cl])[N+](=Cc2ccc[nH]2)Cc2cccc[n+]21", "assay": "MTT", "setting": "100 µg/mL, 24 h", "measurement": "viability reduction", "result": "> 80%"}
{"Compound": "CC(=O)O[C@H]1CC[C@]2(C)[C@H]3C(=O)C=C4[C@@H]5C[C@@](C)(C(=O)OCc6ccccc6)CC[C@]5(C)CC[C@@]4(C)[C@]3(C)CC[C@H]2C1(C)C", "assay": "annexin V/7-AAD flow cytometry", "setting": "4 µM, 48 h", "measurement": "apoptotic cells", "result": "15.7%"}
{"Compound": "CSC(=NN=C(C)c1ccc(S(=O)(=O)N2CCC(C)CC2)cc1)N(C)C", "assay": "flow cytometry", "setting": "3.31 µM, 72 h", "measurement": "cells in %S", "result": "33.4%"}
{"Compound": "Cc1ccc(NCC(=O)Nc2ccc(F)c(Cl)c2)cc1S(=O)(=O)N(C)C", "assay": "cell growth or viability", "measurement": "EC50", "result": "> 25 µM"}
{"Compound": "O=C(/C=C(O)/C=C/c1cccs1)/C=C/c1cccs1", "assay": "DCFH-DA, SRB-normalized", "setting": "10 µM", "scale": "reference: untreated cells", "measurement": "intracellular ROS", "result": "110 ± 10.4%"}
{"Compound": "CC(=NN=c1sc(C(=O)c2ccccc2)nn1-c1ccccc1)c1ccc(S(=O)(=O)N2CCC(C)CC2)cc1", "assay": "annexin V/PI staining", "setting": "IC50, 72 h", "measurement": "necrotic cells", "result": "2.52%"}
{"Compound": "Cc1cc2nc(-c3cc4ccccc4nc3Cl)[nH]c2cc1C", "assay": "flow cytometry", "setting": "8 µM, 48 h", "measurement": "cells in G2 phase", "result": "40.6%"}
{"Compound": "C=C1C(=O)C23CCC4C(C)(C)CCCC4(C)C2C(O)CC1C3 (single isomer, unassigned)", "assay": "western blot, measured: GPX4", "setting": "2.5 µM, 24 h", "measurement": "protein level", "result": "no effect"}
{"Compound": "Cc1ccc(Nc2ncc3c(n2)N(C2CC2)C(=O)N(c2cc(NC(=O)c4cccc(C(F)(F)F)c4)ccc2C)C3)cn1", "assay": "cell growth or viability, ATP luminescence", "setting": "72 h", "measurement": "GI50", "result": "0.878 µM"}
{"Compound": "Cc1ccc2nc(-c3ccc(Cl)cc3)c(CN3CCN(c4cccc(C(F)(F)F)c4)CC3)n2c1", "assay": "cell growth or viability", "setting": "48 h", "measurement": "EC50", "result": "> 50 µM"}
{"Compound": "Cc1ccc(NC(C)(C)C(=O)Nc2ccc(F)c(Cl)c2)cc1S(=O)(=O)N1CC2(COC2)C1", "assay": "cell growth or viability", "measurement": "EC50", "result": "> 25 µM"}
{"Compound": "CC(=O)O[C@@H]1CC[C@@]2(C)C(CC[C@]3(C)C2C(=O)C=C2C4[C@@H](C)[C@H](C)CC[C@]4(C)CC[C@]23C)[C@@]1(C)C(=O)OCC(=O)Oc1cc(C)ccc1C(C)C (stereo partly shown)", "assay": "measured: superoxide dismutase", "setting": "1 µM, with: acetaminophen 10 mM", "measurement": "SOD activity", "result": "64 U/mg"}
{"Compound": "Cc1ccc2nc(-c3ccc(F)c(F)c3)c(CN3CCN(c4ccccc4)CC3)n2c1", "assay": "cell growth or viability", "setting": "48 h", "measurement": "EC50", "result": "> 50 µM"}
{"Compound": "Cc1ccc(NCC(=O)NC2CCCCC2)cc1S(=O)(=O)N1CCOCC1", "assay": "cell growth or viability", "measurement": "EC50", "result": "> 25 µM"}
{"Compound": "N[C@@H](Cc1c[nH]cn1)C(=O)NCCC(=O)NCCC(=O)N[C@@H](Cc1c[nH]cn1)C(=O)O", "assay": "LDH", "setting": "10 µg/mL, 6 h, 1% FBS", "measurement": "viability", "result": "61.6%"}
{"Compound": "CN(C(=NN=C(c1ccccc1)c1ccccn1)[S][Ga]([Cl])[Cl])C1CCCCC1", "assay": "Annexin V/PI flow cytometry", "setting": "5 µM, 24 h, early plus late apoptosis", "scale": "reference: control", "measurement": "apoptotic cells", "result": "40.7%"}
{"Compound": "Cc1ccc(NCC(=O)Nc2ccc(F)c(Cl)c2)cc1S(=O)(=O)N1CC2CC1CO2 (stereo not shown)", "assay": "cell growth or viability", "measurement": "EC50", "result": "> 25 µM"}
{"Compound": "Cc1ccc2nc(-c3ccc(F)c(F)c3)c(CN3CCC(c4ccccc4)CC3)n2c1", "assay": "cell growth or viability", "setting": "48 h", "measurement": "EC50", "result": "> 50 µM"}
{"Compound": "Cc1ccc(NCC(=O)Nc2ccc(F)c(Cl)c2)cc1CN1CCOCC1", "assay": "cell growth or viability", "measurement": "EC50", "result": "> 25 µM"}
{"Compound": "CCOc1cccc2c1[O][Pt-2]1([Cl])[N+](=C2)CC[NH+]1c1ccccc1 (stereo not shown)", "assay": "flow cytometry PI", "setting": "concentration not given, 24 h", "measurement": "sub-G1 cells", "result": "60 to 65%"}
{"Compound": "Cc1ccc(NCC(=O)N2CCNCC2)cc1S(=O)(=O)N1CCOCC1", "assay": "cell growth or viability", "measurement": "EC50", "result": "> 25 µM"}
{"Compound": "Cc1c(C(=O)NNC(=S)Nc2ccc(Cl)cc2)nnn1Cc1nc2ccccc2[nH]1", "assay": "PI flow cytometry", "setting": "concentration not given", "measurement": "cells in pre-G1 phase", "result": "44.5%"}
{"Compound": "Cc1ccc(NCC(=O)Nc2nccs2)cc1S(=O)(=O)N1CCOCC1", "assay": "cell growth or viability", "measurement": "EC50", "result": "> 25 µM"}
{"Compound": "COc1ccc2c(=O)c3cc(OS(=O)(=O)C(F)(F)F)ccc3[nH]c2c1", "assay": "cell growth or viability, resazurin", "measurement": "CC50", "result": "> 200 µM"}
{"Compound": "CCOC(=O)c1c(C(C)C)oc2nc(N3CCCC3)ccc12", "assay": "cell growth or viability", "setting": "48 h", "measurement": "EC50", "result": "> 50 µM"}
{"Compound": "O=C1/C(=C/c2ccc3c(c2)OCCO3)SC(=S)N1[C@@H]1O[C@H](CO)[C@@H](O)[C@H](O)[C@H]1O", "assay": "annexin V/PI", "setting": "IC50, 48 h", "measurement": "late apoptotic cells", "result": "15.5%"}
{"Compound": "Cc1ccc(Nc2ncc3c(n2)N(C)C(=O)N(c2cc(NC(=O)c4ccc(N5CCN(C)CC5)c(C(F)(F)F)c4)ccc2C)C3)cn1", "assay": "cell growth or viability, ATP luminescence", "setting": "72 h", "measurement": "GI50", "result": "0.876 µM"}
{"Compound": "CSC(=S)N/N=C(\\C)c1ccc(S(=O)(=O)N2CCC(C)CC2)cc1", "assay": "annexin V/PI staining", "setting": "IC50, 72 h", "measurement": "apoptotic cells total", "result": "11.8%"}
{"Compound": "O=C(O)CCNC(=O)[C@H](Cc1c[nH]cn1)NC(=O)[C@H](Cc1c[nH]cn1)NC(=O)CCNC(=O)[C@@H]1CCCN1", "assay": "LDH", "setting": "10 µg/mL, 6 h, 1% FBS", "measurement": "viability", "result": "63.7%"}
{"Compound": "Cc1ccc(NC(=O)c2cccc(C(F)(F)F)c2)cc1N1Cc2cnc(N)nc2N(C)C1=O", "assay": "cell growth or viability, ATP luminescence", "setting": "72 h", "measurement": "GI50", "result": "2.69 µM"}
{"Compound": "N[C@@H](Cc1c[nH]cn1)C(=O)NCCC(=O)O", "assay": "LDH", "setting": "10 µg/mL, 6 h, 1% FBS", "measurement": "viability", "result": "73.4%"}
{"Compound": "O=C(Nc1cc2nc(-c3cccc(C(F)(F)F)c3)cn2cn1)N1CC[C@H](F)C1", "assay": "cell growth or viability", "setting": "48 h", "measurement": "EC50", "result": "> 50 µM"}
{"Compound": "CC(C)C1NC(=O)C(Cc2ccccc2)NC(=O)C(CCCCCC(=O)C2CO2)NC(=O)C2CCCCN2C1=O (stereo not shown)", "assay": "cytotoxicity, MTS", "setting": "48 h", "measurement": "EC50", "result": "> 25 µM"}
{"Compound": "Cc1ccc(NCC(=O)N(C)c2ccc(F)c(Cl)c2)cc1S(=O)(=O)N1CCOCC1", "assay": "cell growth or viability", "measurement": "EC50", "result": "> 25 µM"}
{"Compound": "COc1cc(C2c3cc4c(cc3C=C(C=O)C2C(=O)OCC=Cc2ccccc2)OCO4)cc(OC)c1OC (stereo not shown)", "scale": "reference: CC50 HepG2 over amastigote EC50", "measurement": "selectivity index", "result": "> 10"}
{"note": "Excerpt of the above:"}
{"Compound": "COc1cc(C2c3cc4c(cc3C=C(C=O)C2C(=O)OCC=Cc2ccccc2)OCO4)cc(OC)c1OC (stereo not shown)", "scale": "reference: CC50 HepG2 over amastigote EC50", "measurement": "selectivity index", "result": "> 10"}
{"Compound": "CN(C(=NN=C(c1ccccc1)c1ccccn1)[S][Ga]([Cl])[Cl])C1CCCCC1", "assay": "Annexin V/PI flow cytometry", "setting": "5 µM, 24 h, early plus late apoptosis", "scale": "reference: control", "measurement": "apoptotic cells", "result": "40.7%"}
{"Compound": "Cc1cc2nc(-c3cc4ccccc4nc3Cl)[nH]c2cc1C", "assay": "flow cytometry", "setting": "8 µM, 48 h", "measurement": "cells in G2 phase", "result": "40.6%"}
{"Compound": "CCOC(=O)c1c(C(C)C)oc2nc(N3CCCC3)ccc12", "assay": "cell growth or viability", "setting": "48 h", "measurement": "EC50", "result": "> 50 µM"}
{"Compound": "COc1ccc2c(=O)c3cc(OS(=O)(=O)C(F)(F)F)ccc3[nH]c2c1", "assay": "cell growth or viability, resazurin", "measurement": "CC50", "result": "> 200 µM"}
